Results from different studies.
Compare with care: the assays were run in different laboratories. Values joined by “and” are separate records of one study, mostly repeats; a detail may differ.
Target: Discoidin domain-containing receptor 2 (DDR2, Homo sapiens, UniProt Q16832)

| SMILES | assay | setting | scale | endpoint | result |
| --- | --- | --- | --- | --- | --- |
| CNC(=O)C1CCN(c2cc(C)c(F)cc2NC(=O)c2ccc(-c3cc(O)ccc3C)c(C)c2)CC1 | binding, competition with immobilised ligand | 1 µM |  | remaining binding | 97% |
| CNC(=O)Nc1ccc(Cc2ccc(NC(=O)c3cc(C(F)(F)F)cc(S(C)(=O)=O)c3)cc2)cc1 | competition binding |  | reference: DDR2 over DDR1 | selectivity ratio | 30 |
| O=C=[N][Ru-4]123([n]4c5ccc(O)cc5c5c6c(c7cc(F)c[n+]1c7c54)C(=O)NC6=O)[S+]1CC[S+]2CC[S+]3CC1 (stereo not drawn) | enzyme activity | 100 nM, human enzyme, added: 10 µM ATP | reference: untreated | remaining activity | 92% |
| CNC(=O)N1CCN(c2ccc(NC(=O)c3nc(N)sc3-c3ccccc3)cc2C(F)(F)F)CC1 | competition binding |  | reference: DDR2 over DDR1 | selectivity ratio | > 25 |
| C=CC(=O)N1CCCC(n2c(=O)c3ncccc3n(Cc3ccc(Oc4ccccc4)cc3)c2=O)C1 (stereo not drawn) | cell-free assay, competition with immobilised ligand | 1 µM |  | remaining binding | 68% |
| C=CC(=O)N1CCc2ccc(-n3c(=O)ccc4cnc5ccc(-c6cnn(C)c6)cc5c43)cc21 | KINOMEscan | 1 µM | reference: DMSO control | remaining binding | 93% |
| Cc1cccc(O[C@H]2CCC[C@@H](C(C)CNCc3ccncc3)C2)c1 (relative stereo) | cell-free assay | 10 µM |  | inhibition | -4% |
| C=CC(=O)Nc1cccc(-c2cnc3[nH]cc(C(=O)NC(C)(C)C)c3n2)c1 | kinase activity | 0.1 µM |  | inhibition | -3% and 2% |
| COc1c(Cl)cccc1Nc1c(-c2ccncc2C#C[C@@]2(C)CCCN2C(=O)/C=C/CN(C)C)[nH]c2c1C(=O)NCC2 | cell-free assay, competition with immobilised ligand | 3 µM |  | remaining binding | 41% |
| C[C@H]1CN(C(=O)c2cn(-c3ccnc(N)n3)c3cc(C#CC4(O)CCCCC4)ccc23)CCN1 | cell-free assay, TR-FRET | 1 µM |  | inhibition | -4% |
| Nc1ncc2c(n1)-c1c([nH]c3ccc(C4=CCOCC4)cc13)CCC2 | binding, competition with immobilised ligand | 1 µM |  | remaining binding | 100% |
| CNC(=O)c1ccc(C)c(NC(=O)c2cnn3ccccc23)c1 | competition binding |  | reference: DDR2 over DDR1 | selectivity ratio | 0.42 |
| C=CC(=O)N1Cc2nc(-c3cc(-c4cc(Cl)cnc4Cl)c(F)cc3F)n(-c3ccncn3)c2C1 | cell-free assay | 1 µM |  | inhibition | 1.7% |
| CC1C(=O)N(C)C(c2ccc(Oc3cnc4ccccc4n3)cc2)N1C(=O)c1cc(C(C)(C)C)nn1-c1ccccc1 (stereo not drawn) | competition binding |  | reference: DDR2 over DDR1 | selectivity ratio | 8 |
| CCN1CCN(Cc2ccc(C(=O)Nc3ccc(C)c(NCc4cnc5[nH]ccc5c4OC)c3)cc2C(F)(F)F)CC1 | binding, competition with immobilised ligand | 1 µM |  | remaining binding | 9.9% |

Excerpt of the above:
| SMILES | assay | setting | scale | endpoint | result |
| --- | --- | --- | --- | --- | --- |
| COc1c(Cl)cccc1Nc1c(-c2ccncc2C#C[C@@]2(C)CCCN2C(=O)/C=C/CN(C)C)[nH]c2c1C(=O)NCC2 | cell-free assay, competition with immobilised ligand | 3 µM |  | remaining binding | 41% |
| C[C@H]1CN(C(=O)c2cn(-c3ccnc(N)n3)c3cc(C#CC4(O)CCCCC4)ccc23)CCN1 | cell-free assay, TR-FRET | 1 µM |  | inhibition | -4% |
